Results gathered from unrelated publications.
A part holds a random share of what one study measured. Changes are numbered by the printed parent chain.

Block 1 — target: CCND2, cyclin fold, Cln2 fusion (human); technique: yeast growth competition, sequencing; medium: yeast; setting: weak parent motif; reference: not given; reading: higher = stronger binding
Starting sequence: WEE1 docking peptide (human); HKTFRKLRLFDTP; partner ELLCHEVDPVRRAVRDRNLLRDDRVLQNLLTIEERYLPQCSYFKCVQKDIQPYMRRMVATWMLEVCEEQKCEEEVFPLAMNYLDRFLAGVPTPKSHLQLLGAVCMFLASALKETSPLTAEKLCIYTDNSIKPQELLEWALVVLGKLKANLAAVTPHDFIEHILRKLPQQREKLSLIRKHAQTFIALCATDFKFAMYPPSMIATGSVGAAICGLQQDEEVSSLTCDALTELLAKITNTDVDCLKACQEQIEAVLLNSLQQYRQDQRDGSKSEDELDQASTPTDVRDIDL
Change | normalised enrichment score
HKTFRKGRLFDTP [L7G] | 0.982
HKTFRKLRLMDTP [F10M] | 0.265
HKTFNKLRLFDTP [R5N] | -3.46
HKVFRKLRLFDTP [T3V] | 0.464
HKHFRKLRLFDTP [T3H] | -0.132
HKTFRKLKLFDTP [R8K] | 0.349

Block 2 — technique: protein-binding microarray; form: double-stranded DNA, one strand shown; medium: in vitro; tested at: not given; reading: higher = stronger binding
Target: Protein max, full length (MAX, Homo sapiens, UniProt P61244-2, residues 1-151)
Setting: k-mer, scored over probes, only values ≥0.25
Oligonucleotide | E-score
GTGTAGAA | 0.276
ATGTGACC | 0.374
TGCGGACA | 0.254
GCCGCACC | 0.267
GACACGCA | 0.302
ATGCTTCC | 0.36

Block 3 — technique: universal PBM; form: double-stranded DNA, one strand shown; medium: in vitro; tested at: 600 nM; reading: higher = stronger binding
Target: Sal-like protein 4, full length isoform A (SALL4, Homo sapiens, UniProt Q9UJQ4, residues 1-1053)
Sequence of UniProt Q9UJQ4 (whole entry, looked up): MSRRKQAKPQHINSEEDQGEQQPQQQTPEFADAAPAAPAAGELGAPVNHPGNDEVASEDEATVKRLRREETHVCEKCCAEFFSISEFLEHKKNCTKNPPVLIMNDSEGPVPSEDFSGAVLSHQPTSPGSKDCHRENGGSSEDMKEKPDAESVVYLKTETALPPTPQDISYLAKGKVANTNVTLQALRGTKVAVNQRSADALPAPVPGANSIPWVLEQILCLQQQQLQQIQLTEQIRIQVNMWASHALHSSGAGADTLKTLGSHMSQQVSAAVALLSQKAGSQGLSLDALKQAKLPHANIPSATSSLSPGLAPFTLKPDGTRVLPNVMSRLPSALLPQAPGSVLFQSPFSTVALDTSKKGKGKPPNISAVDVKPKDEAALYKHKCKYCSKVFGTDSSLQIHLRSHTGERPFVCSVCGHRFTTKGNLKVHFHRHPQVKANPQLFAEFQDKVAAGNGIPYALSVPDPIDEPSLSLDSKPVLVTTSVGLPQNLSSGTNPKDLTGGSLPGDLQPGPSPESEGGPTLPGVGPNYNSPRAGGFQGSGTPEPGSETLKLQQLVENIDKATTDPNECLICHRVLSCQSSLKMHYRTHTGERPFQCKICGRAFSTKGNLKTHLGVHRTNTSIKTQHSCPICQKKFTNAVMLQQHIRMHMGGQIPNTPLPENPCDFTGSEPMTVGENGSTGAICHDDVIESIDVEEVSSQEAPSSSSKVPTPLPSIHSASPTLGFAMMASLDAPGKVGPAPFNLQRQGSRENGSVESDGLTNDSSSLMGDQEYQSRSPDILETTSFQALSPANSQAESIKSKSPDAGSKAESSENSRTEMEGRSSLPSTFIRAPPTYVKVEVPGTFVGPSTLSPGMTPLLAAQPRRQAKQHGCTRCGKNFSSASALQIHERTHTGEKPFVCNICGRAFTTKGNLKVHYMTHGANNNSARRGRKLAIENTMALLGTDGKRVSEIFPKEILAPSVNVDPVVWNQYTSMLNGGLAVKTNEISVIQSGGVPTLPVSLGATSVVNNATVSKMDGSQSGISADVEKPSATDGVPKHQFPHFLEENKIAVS
Setting: 8-mer, flanks averaged, mean of replicates
Oligonucleotide | E-score
CAATCCGG | -0.171
CAATCGTA | 0.247
AAATCCAA | 0.223
ACAGCCGT | -0.229
CATGCCCC | -0.241
AGAATCTG | 0.0458
CACGTTAA | 0.151
ACTATTAA | 0.341
AAGAACCT | 0.0345
AGCATCAC | -0.172

Mixed results
Molecule | target | assay | system | setting | how to read | measurement | value
PhoQ, residues 284 288 289 292 302 303 SNSSNI | PhoP, residues 12 14 15 18 19 GHCSL (Escherichia coli, UniProt P23836) | Sort-seq, measured: YFP reporter | E. coli | PhoQ-PhoP variant library, added: 10 µM Mg2+ | reference: high Mg2+ state, higher = stronger signaling | fold induction | 6.95

Some of these lines once more (block 3):
Oligonucleotide | E-score
CAATCCGG | -0.171
CAATCGTA | 0.247
